Results pooled from the literature.
Numbers after ± are the reported error.

Substance	assay	test system	setting	how to read	endpoint	value
CC(C)NCC(O)c1ccc(NS(C)(=O)=O)cc1 (racemic)		male Hartley guinea pig, anaesthetized	intravenous infusion, 1 mg/kg, 10 min infusion	reference: baseline	QTc change	18.1 ± 5.3%
COc1cnc(C(=O)Nc2ccc(F)c([C@]34CN(c5ncc(F)cn5)C[C@H]3CSC(N)=N4)c2)cn1		PDAPP mice, brain	oral, 3.0 mg/kg, 3 h		brain concentration	110 nM
CCCC[C@@H]1NC(=O)[C@@H](NC(=O)[C@H](CCC(=O)O)NC(=O)CNC(=O)CN2CCN(CC(=O)O)CCN(CC(=O)O)CCN(CC(=O)O)CC2)CCCCNC(=O)C[C@@H](C(N)=O)NC(=O)[C@H](C(C)C)NC(=O)[C@@H]2CCCN2C(=O)[C@H](CCCNC(=N)N)NC(=O)CNC(=O)[C@H](Cc2c[nH]c3ccccc23)NC(=O)[C@H](CCCNC(=N)N)NC(=O)[C@@H](Cc2ccccc2)NC(=O)[C@H](Cc2c[nH]cn2)NC(=O)[C@H](CCC(=O)O)NC1=O [indium-111 labelled]		normal C57 mice, skin	intravenous, 0.037 MBq, 2 h		tissue uptake	0.25 ± 0.17 %ID/g
C/C(=C\CC/C(C)=C/CC[C@]1(C)CCc2cc(O)cc(C)c2O1)CCC=C(CF)CF		heat-inactivated mouse liver microsomes	1 µM, up to 10 min, 37 °C		stability	stable
O=C(CCCN1CCC(O)(c2ccc(Cl)cc2)CC1)c1ccc(F)cc1	shake-flask	soybean oil	37 °C		thermodynamic solubility	1.22 ± 0.13 mg/g
CC(C)n1nc(-c2ccc3oc(N)nc3c2)c2c(N)ncnc21		human, fasted	oral, 4 mg, unmilled vs milled capsules		PK profile difference	no effect
CC(C)(Oc1ccc(C(=O)c2ccc(Cl)cc2)cc1)C(=O)O	shake-flask	polysorbate 80	37 °C		thermodynamic solubility	57.1 ± 2.49 mg/g
CCc1cn([C@@H]2O[C@H](CO)[C@@H](O)[C@H]2O)c2ncnc(C)c12	metabolic stability	mouse, liver microsomes	15 min		compound remaining	99%
Nc1ncn([C@H]2C[C@H](O)[C@@H](CO)O2)c(=O)n1		male CD-1 mice, plasma	oral, 167 mg/kg THU + 0.4 mg/kg, day 1		AUC(0-180)	2.75 µM·h
COc1c(N2CCNC(C)C2)c(F)cc2c(=O)c(C(=O)NCCCN(C)C)cn(C3CC3)c12 (racemic)	item: GFX formed plus unchanged prodrug	pigmented rabbits, choroid-retinal pigment epithelium	topical eye drop, 30 µL of 35 mg/mL, 1 h	reference: prodrug over GFX 5 mg/mL	tissue level ratio	1.95 fold
Cn1c(-c2ccc(C(N)=O)cc2F)nnc1C(C)(C)Oc1c(F)cc(Cl)cc1F		young Japanese subjects, plasma	oral, 20 mg single dose, day 1		AUC(0-inf) range	1330 to 3320 ng·h/mL
CCCCC/C=C/C(=O)CCc1ccc(O)c(OC)c1		rat, small intestine site 4 contents	oral, dose not given, 4 h, no β-glucuronidase treatment	reference: ingested amount	recovery	0.46%
CC(C)NCC(O)COc1cccc2ccccc12 (centres unmarked)		male Hartley guinea pig, anaesthetized	intravenous infusion, 1 mg/kg, 10 min infusion	reference: baseline	QTc change	2.7 ± 1.3%
CC(CC(=O)O)C(=O)O (centres unmarked)		human hemodialysis patients, plasma	pre-treatment	reference: hemodialysis over normal subjects	total plasma concentration ratio	11
CC(=O)[C@H]1CC[C@H]2[C@@H]3CCC4=CC(=O)CC[C@]4(C)[C@H]3CC[C@]12C	shake-flask	soybean oil	37 °C		thermodynamic solubility	30.4 ± 1.28 mg/g
CCCCN1C(=O)c2ccccc2NC12C(=O)N(C)c1ccc(Br)cc12 (centres unmarked)	shake flask	aqueous buffer	pH 7.4		logD	3.7
COc1cccc(OCCCN)c1-c1cc(Nc2cnc(C#N)cn2)n[nH]1		human, plasma	intravenous, 105 mg/m², patients, infusion		clearance	1280 mL/min
CCc1oc2ccccc2c1C(=O)c1cc(Br)c(O)c(Br)c1		male Sprague-Dawley rats, whole blood	oral capsule, 15.2 to 17.2 mg/kg	reference: intravenous 0.5 mg/kg	fraction absorbed	0.58
O=C(Nc1ccc([N+](=O)[O-])cc1Cl)c1cc(Cl)ccc1O	shake-flask	polysorbate 80	37 °C		thermodynamic solubility	30.2 ± 1.77 mg/g
CO[C@H]1C[C@@H]2CC[C@@H](C)[C@@](O)(O2)C(=O)C(=O)N2CCCC[C@H]2C(=O)O[C@H]([C@H](C)C[C@@H]2CC[C@@H](O)[C@H](OC)C2)CC(=O)[C@H](C)/C=C(\C)[C@@H](O)[C@@H](OC)C(=O)[C@H](C)C[C@H](C)/C=C/C=C/C=C/1C	LC-MS/MS	healthy dogs, whole blood	oral, 0.1 mg/kg single dose		AUC(0-48h)	140 ± 23.9 ng·h/mL
O=c1[nH]nc(CCc2cc(F)cc(F)c2)cc1O	metabolic stability	mouse, liver microsomes	1 h, pH 7.5, with UDPGA		compound remaining	59%

Substance	assay	test system	setting	how to read	endpoint	value
C[C@]12C=CC(=O)C=C1CC[C@@H]1[C@@H]2[C@@H](O)C[C@@]2(C)[C@H]1C[C@H]1O[C@@H](C3CCCCC3)O[C@]12C(=O)CO		children with asthma	inhaled, ciclesonide 80 µg with spacer vs 160 µg without, steady state, dose normalized	reference: with spacer over without	AUC(tau) ratio	126%
CCCC[C@H](NC(=O)CN1CCN(CC(=O)O)CCN(CC(=O)O)CCN(CC(=O)O)CC1)C(=O)N[C@H]1CC(=O)NCCCC[C@@H](C(N)=O)NC(=O)[C@H](Cc2c[nH]c3ccccc23)NC(=O)[C@H](CCCNC(=N)N)NC(=O)[C@@H](Cc2ccccc2)NC(=O)[C@H](Cc2c[nH]cn2)NC1=O [indium-111 labelled]		female C57 mice, B16/F1 melanoma, urine	intravenous, 0.037 MBq, 4 h		excreted dose	84.6 ± 5.21%
O=C(NC[C@H]1CN(c2ccc(N3CCOCC3=O)cc2)C(=O)O1)c1ccc(Cl)s1		Sprague-Dawley rat, male, plasma	oral, 10 mg/kg		terminal half-life	226 ± 21.6 min
CCCC[C@H](NC(C)=O)C(=O)N[C@H]1CCC(=O)NC[C@@H](C(=O)N[C@@H](Cc2c[nH]c3ccccc23)C(N)=O)NC(=O)[C@H](CCCNC(=N)N)NC(=O)[C@@H](Cc2ccccc2)NC(=O)[C@H](Cc2c[nH]cn2)NC1=O		healthy volunteers, both sexes, plasma	subcutaneous, 3.0 mg once daily, day 7		median Vss/F	288 L
CCN(CC)C(=S)SSC(=S)N(CC)CC	shake-flask	soybean oil	37 °C		thermodynamic solubility	21.4 ± 1.07 mg/g
CC(C)(CC(=O)N1CCCC1)NCC(=O)N1C[C@@H](F)C[C@H]1C#N		Chinese type 2 diabetes patients, plasma	oral, 200 mg once daily, multiple doses		AUC(0-inf) at steady state	3850 ng·h/mL
C[C@@H](c1ncncc1F)[C@](O)(Cn1cncn1)c1ccc(F)cc1F	LC-MS/MS	Chinese patients, hematological disorders, plasma	200 mg every 12 h, steady state		median trough concentration	2.1 µg/mL
CC(C)Cc1ccc(C(C)C(=O)O)cc1 (racemic)		pig, skin	0.01 g/cm^3, pH 7.4, 32 °C, donor 70% ethanol, 0.5 mm dermatomed		skin flux	13.6 µg/cm2/h
Cc1c(O)cccc1C(=O)N[C@@H](CSc1ccccc1)[C@H](O)CN1C[C@H]2CCCC[C@H]2C[C@H]1C(=O)NC(C)(C)C	equilibrium dialysis	cellulose membrane, cell-free	pH 7.4, no Pluronic P85		effective permeability	50 ± 2.5 ×10⁻⁶ cm/s
COC(=O)C[C@](O)(CCCC(C)(C)O)C(=O)O[C@@H]1C(OC)=C[C@]23CCCN2CCc2cc4c(cc2[C@H]13)OCO4		CD1 mouse, heart	oral, 1 mg/kg, 24 h, below quantification limit 1.00 ng/mL		tissue concentration	not detected
Cc1cc(Nc2ncc(Cl)c(Nc3ccccc3S(=O)(=O)C(C)C)n2)c(OC(C)C)cc1C1CCNCC1	item: unbound drug	patients, plasma	oral, 750 or 450 mg/day, geometric mean		AUC(tau) at steady state	0.239 µM·h
CC1(C)Oc2cc3oc(=O)ccc3cc2C[C@@H]1O		CD-1 mouse, male, lung	oral gavage, 80 mg/kg daily, 4 weeks		organ weight	0.23 ± 0.02 g
O=c1cc(-c2ccc(O)cc2)oc2cc(O[C@@H]3O[C@H](CO)[C@@H](O)[C@H](O)[C@H]3O)cc(O)c12	mass spectrometry	Caco-2	40 µM, 6 h		Papp A→B	5.75 ×10⁻⁶ cm/s
des-acyl ghrelin (human)	capillary depletion	mouse, brain parenchyma	intravenous, 10 min		parenchyma/serum ratio	10.4 ± 1.95 µL/g
Nc1nc(N)c2nc(CNc3ccc(C(=O)N[C@@H](CCC(=O)O)C(=O)O)cc3)cnc2n1		female Lewis rats, plasma	subcutaneous, 500 nmol/kg of parent drug		terminal half-life	~66.6 min
CS(=O)(=O)n1cc2c(n1)CN([C@H]1CO[C@H](c3cc(F)ccc3F)[C@@H](N)C1)C2		male human, urine	oral, 25 mg, single dose, fasted, healthy volunteers		renal clearance	36.7 mL/min
COc1cccc2c1C(=O)c1c(O)c3c(c(O)c1C2=O)C[C@@](O)(C(=O)CO)C[C@@H]3O[C@H]1C[C@H](N)[C@H](O)[C@H](C)O1		female BALB/c mice, serum	intravenous, 18 mg total in three doses, 2 weeks after last dose		CK-MB	127 ± 7 U/L
COc1ccc(Cl)cc1C(=O)NCCc1ccc(S(=O)(=O)NC(=O)NC2CCCCC2)cc1	shake-flask	Captex 355	37 °C		thermodynamic solubility	0.06 ± 0.01 mg/g
CC[C@H](C)[C@H](NC(=O)[C@H](Cc1ccccc1)NC(=O)[C@H](CCC(=O)O)NC(=O)[C@H](CCCCNC(=O)COCCOCCNC(=O)COCCOCCNC(=O)CC[C@H](NC(=O)CCCCCCCCCCCCCCCCC(=O)O)C(=O)O)NC(=O)[C@H](C)NC(=O)[C@H](C)NC(=O)[C@H](CCC(N)=O)NC(=O)CNC(=O)[C@H](CCC(=O)O)NC(=O)[C@H](CC(C)C)NC(=O)[C@H](Cc1ccc(O)cc1)NC(=O)[C@H](CO)NC(=O)[C@H](CO)NC(=O)[C@@H](NC(=O)[C@H](CC(=O)O)NC(=O)[C@H](CO)NC(=O)[C@@H](NC(=O)[C@H](Cc1ccccc1)NC(=O)[C@@H](NC(=O)CNC(=O)[C@H](CCC(=O)O)NC(=O)C(C)(C)NC(=O)[C@@H](N)Cc1cnc[nH]1)[C@@H](C)O)[C@@H](C)O)C(C)C)C(=O)N[C@@H](C)C(=O)N[C@@H](Cc1c[nH]c2ccccc12)C(=O)N[C@@H](CC(C)C)C(=O)N[C@H](C(=O)N[C@@H](CCCNC(=N)N)C(=O)NCC(=O)N[C@@H](CCCNC(=N)N)C(=O)NCC(=O)O)C(C)C		healthy Chinese subjects, plasma	subcutaneous, 1.0 mg once weekly		average steady-state concentration	47.4 nmol/L
CC[C@H](C)CCCCC(=O)N[C@@H](CCN)C(=O)N[C@H](C(=O)N[C@@H](CCN)C(=O)N[C@H]1CCNC(=O)[C@H]([C@@H](C)O)NC(=O)[C@H](CCN)NC(=O)[C@H](CCN)NC(=O)[C@H](CC(C)C)NC(=O)[C@@H](Cc2ccccc2)NC(=O)[C@H](CCN)NC1=O)[C@@H](C)O	UPLC-MS/MS	intensive care patients AKI, plasma	iv, dose not given, 6 h post-dose, steady state, polymyxin B dosing		mid-interval concentration	3400 ± 1100 ng/mL
